# Measured values collected from several papers.
# Each line is one published result; not all experiments were run side by side. “And” joins repeats or separate records; there may be more than shown. ± gives the spread as reported.
# Target: Glutamate carboxypeptidase 2 (FOLH1, Homo sapiens, UniProt Q04609)
# Sequence of UniProt Q04609 (whole entry, looked up): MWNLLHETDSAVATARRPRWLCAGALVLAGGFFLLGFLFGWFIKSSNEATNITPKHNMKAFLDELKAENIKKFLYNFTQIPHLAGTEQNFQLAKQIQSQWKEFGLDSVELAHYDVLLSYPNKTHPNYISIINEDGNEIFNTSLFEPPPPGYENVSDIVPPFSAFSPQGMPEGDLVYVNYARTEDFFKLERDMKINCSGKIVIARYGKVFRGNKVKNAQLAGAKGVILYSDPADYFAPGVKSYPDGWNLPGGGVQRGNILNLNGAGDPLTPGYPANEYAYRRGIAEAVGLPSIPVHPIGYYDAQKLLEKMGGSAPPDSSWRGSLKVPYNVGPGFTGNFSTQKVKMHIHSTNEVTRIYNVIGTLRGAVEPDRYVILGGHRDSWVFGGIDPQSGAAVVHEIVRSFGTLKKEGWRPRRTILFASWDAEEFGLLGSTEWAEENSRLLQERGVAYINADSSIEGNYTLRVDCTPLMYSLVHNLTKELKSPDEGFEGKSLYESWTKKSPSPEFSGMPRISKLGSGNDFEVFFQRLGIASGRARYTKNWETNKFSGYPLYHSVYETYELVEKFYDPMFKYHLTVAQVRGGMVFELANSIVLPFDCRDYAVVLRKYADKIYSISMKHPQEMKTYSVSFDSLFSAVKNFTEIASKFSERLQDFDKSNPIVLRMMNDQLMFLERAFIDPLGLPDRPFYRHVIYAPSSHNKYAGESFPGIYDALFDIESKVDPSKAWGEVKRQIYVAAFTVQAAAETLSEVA
assay,system,conditions,quantity,result,SMILES
"ligand displacement in cells, radioligand",,,IC50,124 nM,CC1=CC(C)=[N+]2C1=C(CCCC(=O)NCC1CCC(C(=O)NC(Cc3ccc4ccccc4c3)C(=O)NCCCCC(NC(=O)NC(CCC(=O)O)C(=O)O)C(=O)O)CC1)c1c(C)cc(C)n1[B-]2(F)F (stereo not shown)
"radioligand binding, inhibitor",PC3pip,"1 h, 37 °C, together with: [3H]-methyl ligand 12 nM",IC50,2.07 ± 0.13 nM,C[N+]1=C(C=CC=CC=C2N(CCCCCC(=O)NCCCC[C@H](NC(=O)[C@@H](CCC(=O)O)NC(=O)[C@@H](CCC(=O)O)NC(=O)[C@@H](CCC(=O)O)NC(=O)CCCCCNC(=O)C3CCC(CNC(=O)CC[C@H](NC(=O)N[C@@H](CCC(=O)O)C(=O)O)C(=O)O)CC3)C(N)=O)c3ccc4ccccc4c3C2(C)C)C(C)(C)c2c1ccc1ccccc21 (stereo partly shown)
"enzyme activity, inhibitor, fluorescence",,lysate,Ki,0.9 nM,O=C(O)CC[C@H](NC(=O)O[C@@H](CCCCNC(=O)c1ccc(I)cc1)C(=O)O)C(=O)O
"cell-free assay, FP",,,Kd,58 nM,O=C(O)CNC(=O)c1cc(CNC(=O)c2ccc(CNC(=O)[C@H]3C[C@H](NC(=O)CCNS(=O)(=O)c4ccc5ccccc5c4)CN3C(=O)c3nn(-c4ccccc4)c(=O)[nH]c3=O)cc2)cc(OCC(=O)NCCOCCOCCNC(=S)Nc2ccc3c(c2)C(=O)OC32c3ccc(O)cc3Oc3cc(O)ccc32)c1
"enzyme activity, inhibitor, fluorescence",,,IC50,54 nM,O=C(O)CC[C@H](NC(=O)N[C@@H](CCCCNC(=O)CCCCCCC(=O)NCCCCNC(=O)CN1CCN(CC(=O)O)CCN(CC(=O)O)CCN(CC(=O)O)CC1)C(=O)O)C(=O)O
"ligand displacement, radioligand",,,Ki,4.7 nM and 4.72 nM,O=C([O-])CN1CCN(CC(=O)[O-])CCN(CC(=O)NCC2CCC(C(=O)NC(Cc3ccc4ccccc4c3)C(=O)NCCCCC(NC(=O)NC(CCC(=O)O)C(=O)O)C(=O)O)CC2)CCN(CC(=O)[O-])CC1.[Sc+3] (stereo not shown)
"radioligand binding, inhibitor",PC3pip,"1 h, 37 °C, together with: [3H]-methyl ligand 12 nM",IC50,1.53 ± 0.14 nM,CC1(C)C(=CC=C2CCCC(C=CC3=[N+](CCCCS(=O)(=O)[O-])c4ccc(S(=O)(=O)O)cc4C3(C)C)=C2Oc2ccc(S(=O)(=O)O)cc2)N(CCCCCC(=O)NCCCC[C@H](NC(=O)[C@@H](CCC(=O)O)NC(=O)[C@@H](CCC(=O)O)NC(=O)[C@@H](CCC(=O)O)NC(=O)CCCCCNC(=O)C2CCC(CNC(=O)CC[C@H](NC(=O)N[C@@H](CCC(=O)O)C(=O)O)C(=O)O)CC2)C(N)=O)c2ccc(S(=O)(=O)O)cc21 (stereo partly shown)
"ligand displacement in cells, radioligand",,,Ki,19.6 nM,CC1=CC(C)=[N+]2C1=C(CCCC(=O)NCCCCCC(=O)NCCCC[C@H](NC(=O)N[C@@H](CCC(=O)O)C(=O)O)C(=O)O)c1c(C)cc(C)n1[B-]2(F)F
"enzyme activity, inhibitor, fluorescence",,lysate,Ki,0.04 nM,O=C(O)CC[C@H](OC(=O)N[C@@H](CCCCNC(=O)c1ccc(I)cc1)C(=O)O)C(=O)O
"enzyme activity, inhibitor, fluorescence",,lysate,Ki,0.17 nM,NCC(=O)NC(CC(=O)O)C(=O)NC(CS)C(=O)NC(CCCCNC(=O)CCCCCCC(=O)NCCCCC(NC(=O)NC(CCC(=O)O)C(=O)O)C(=O)O)C(=O)O (stereo not shown)

# Some of these lines once more:
assay,system,conditions,quantity,result,SMILES
"ligand displacement, radioligand",,,Ki,4.7 nM and 4.72 nM,O=C([O-])CN1CCN(CC(=O)[O-])CCN(CC(=O)NCC2CCC(C(=O)NC(Cc3ccc4ccccc4c3)C(=O)NCCCCC(NC(=O)NC(CCC(=O)O)C(=O)O)C(=O)O)CC2)CCN(CC(=O)[O-])CC1.[Sc+3] (stereo not shown)
"radioligand binding, inhibitor",PC3pip,"1 h, 37 °C, together with: [3H]-methyl ligand 12 nM",IC50,1.53 ± 0.14 nM,CC1(C)C(=CC=C2CCCC(C=CC3=[N+](CCCCS(=O)(=O)[O-])c4ccc(S(=O)(=O)O)cc4C3(C)C)=C2Oc2ccc(S(=O)(=O)O)cc2)N(CCCCCC(=O)NCCCC[C@H](NC(=O)[C@@H](CCC(=O)O)NC(=O)[C@@H](CCC(=O)O)NC(=O)[C@@H](CCC(=O)O)NC(=O)CCCCCNC(=O)C2CCC(CNC(=O)CC[C@H](NC(=O)N[C@@H](CCC(=O)O)C(=O)O)C(=O)O)CC2)C(N)=O)c2ccc(S(=O)(=O)O)cc21 (stereo partly shown)
